Results collected from several papers.
A part holds a random share of what one study measured. Positions count from the first letter of the parent shown.

Study 1
Target: Sal-like protein 4, full length isoform A (SALL4, Homo sapiens, UniProt Q9UJQ4, residues 1-1053)
UniProt Q9UJQ4, sequence (whole entry, looked up): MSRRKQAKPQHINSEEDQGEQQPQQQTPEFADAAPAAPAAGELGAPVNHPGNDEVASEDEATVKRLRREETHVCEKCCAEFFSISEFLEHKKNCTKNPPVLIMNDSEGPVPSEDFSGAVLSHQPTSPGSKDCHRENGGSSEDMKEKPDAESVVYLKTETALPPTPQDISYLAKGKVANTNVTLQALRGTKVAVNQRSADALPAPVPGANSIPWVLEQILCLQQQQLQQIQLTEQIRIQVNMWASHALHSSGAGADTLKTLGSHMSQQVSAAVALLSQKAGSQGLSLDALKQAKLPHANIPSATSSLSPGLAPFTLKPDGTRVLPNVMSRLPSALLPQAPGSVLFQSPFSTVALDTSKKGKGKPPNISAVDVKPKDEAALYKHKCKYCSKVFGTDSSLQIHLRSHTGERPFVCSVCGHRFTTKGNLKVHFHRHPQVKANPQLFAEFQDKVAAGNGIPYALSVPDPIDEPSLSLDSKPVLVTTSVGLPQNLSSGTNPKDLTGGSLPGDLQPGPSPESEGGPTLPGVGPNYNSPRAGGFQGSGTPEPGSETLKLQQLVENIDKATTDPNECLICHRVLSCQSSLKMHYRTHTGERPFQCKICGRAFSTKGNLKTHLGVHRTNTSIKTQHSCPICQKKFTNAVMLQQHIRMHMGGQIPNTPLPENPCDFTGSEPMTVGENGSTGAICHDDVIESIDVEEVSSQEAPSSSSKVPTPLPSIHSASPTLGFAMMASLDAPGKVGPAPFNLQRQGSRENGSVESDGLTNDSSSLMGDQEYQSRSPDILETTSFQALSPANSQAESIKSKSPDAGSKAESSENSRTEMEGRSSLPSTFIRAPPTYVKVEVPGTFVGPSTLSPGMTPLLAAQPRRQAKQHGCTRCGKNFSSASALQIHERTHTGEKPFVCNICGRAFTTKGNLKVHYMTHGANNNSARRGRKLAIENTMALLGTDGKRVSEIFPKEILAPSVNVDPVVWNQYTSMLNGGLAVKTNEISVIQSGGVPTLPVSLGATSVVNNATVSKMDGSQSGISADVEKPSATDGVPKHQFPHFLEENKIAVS
Technique: universal PBM
Molecule type: double-stranded DNA, one strand shown
Sample: in vitro
Tested at: 600 nM
Notes: 8-mer, flanks averaged, mean of replicates
Reading: higher = stronger binding
`AGATAACT` gave an E-score of 0.177.
`CCGAAACG` gave an E-score of -0.192.
With `CTCTATGA` the E-score was 0.0895.
The E-score of `AGACAGGA` is reported as 0.12.
With `CACAGAGG` the E-score was -0.14.
`CGCCAGAC` gave an E-score of -0.22.
With `TAATTAAA` the E-score was 0.376.
With `AAGGCTAA` the E-score was 0.0309.

Study 2
Target: RNA binding protein fox-1 homolog 2, RRM domain, GST-SBP tag (RBFOX2, Homo sapiens, UniProt O43251-10, residues 100-194)
Technique: RNA Bind-n-Seq
Molecule type: RNA
Sample: in vitro
Tested at: 365 nM
Notes: natural RNA segment, single round, ends assumed
Baseline: no-protein control
Reading: higher = stronger binding
Target sequence (chain): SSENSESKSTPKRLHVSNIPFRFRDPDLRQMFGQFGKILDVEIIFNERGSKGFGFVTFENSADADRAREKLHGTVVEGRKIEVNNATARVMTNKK
`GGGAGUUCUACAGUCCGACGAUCAAAAGACUUUGUUUAAAGAUUUUAUUUAAACUAUUAAGAAUCAACAUGCAAACAGCCUACUUCUUCAUGAACAAUUCCAUUUUAUUGACUGAACUUUUCUCAUAUUUUCAUGGAAUUCUCGGGUGCCAA` — result for “RBNS enrichment (R)”: 1.03.
Under “RBNS enrichment (R)”, `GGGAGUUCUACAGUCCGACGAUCGUUAUGGGAAAGGGAGGGGGAGAAGAAAUUGACAUUUAUUUUAUUAUUUAUUUUAAAUGUUUACAUCUUCUUUAUGUUGUAUCAAGCCUGAAUAGAAACUGAUAGCAUUAUGGAAUUCUCGGGUGCCAA` is recorded as 2.03.
Under “RBNS enrichment (R)”, `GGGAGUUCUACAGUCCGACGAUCCCCCUCUUACUUUUUCUCUUGUGGAACUUGGCCACAGUUUCUGAACAAUGUGCCUACAUUACCAGCUGGCUUCAGUGAUUCCUCUGUGUCCCUUUUUGGUUUCUGGAAAGUGGAAUUCUCGGGUGCCAA` is recorded as 0.744.
`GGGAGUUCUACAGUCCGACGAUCUAAAAUAAAAUGAAAGAAACUUGCUUCCCUUAGCCUUUGUUCUAGAAAAUAAACUUGUGCACUUUGACCUCUGUCCCCGAGAUGUCACUCCUGUUCCUCCCCACCUGGUAUGGAAUUCUCGGGUGCCAA`: “RBNS enrichment (R)” 0.652.
`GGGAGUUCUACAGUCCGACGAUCUGUGUGGUGUCUAGGAAAAUCAUAUAUAUUUUUUUCUCCAAGAAAUAAAUUCAUCCUGGACAUUGGCCAUACAGCUUUUUAAAAUUAUUACUUUGUAUGUUCAAGUGAUAUGGAAUUCUCGGGUGCCAA`: “RBNS enrichment (R)” 1.68.
`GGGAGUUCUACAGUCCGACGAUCAAGAAGCCUUCACUCACCUUCACUGCUGCUGUUGCAACUCGGCUGUUCUGGACUCUGAUGUGUGUGGAGGGAUGGGGAAUAGAACAUUGACUGUGUUGAUUACCUUCACUUGGAAUUCUCGGGUGCCAA` — result for “RBNS enrichment (R)”: 1.53.
Under “RBNS enrichment (R)”, `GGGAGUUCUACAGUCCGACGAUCAAAAGAAAGGUACAAUGGAAACACUCAUAGACUGACACCAUUAUCAUUAACUAAGAAUAAUAAAUUUGCUCCUAUCCUGGGUCACGUGCCACGGUAAGAUGUAUAGUAUGUGGAAUUCUCGGGUGCCAA` is recorded as 0.27.
Under “RBNS enrichment (R)”, `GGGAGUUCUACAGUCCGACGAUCGAGAAAGUUCAAGUUAGCUUCAGUCCUUCAGUGAUAGGCAACCUAGGUUUUCUAGAGUUUAAUUCUUUAUCAGCCAGGCAAUGACUCUGAACUCUGAAAUGCUAUAUUAUUGGAAUUCUCGGGUGCCAA` is recorded as 0.415.

Study 3
Target: PABPC1L2, full length, GST fusion (mouse, UniProt A0ABA7IW68)
Technique: RNAcompete
Molecule type: RNA
Sample: in vitro
Tested at: 20 nM
Notes: 7-mer, probes averaged, single round
Baseline: mean of 7-mers
Reading: higher = stronger binding
Construct (chain): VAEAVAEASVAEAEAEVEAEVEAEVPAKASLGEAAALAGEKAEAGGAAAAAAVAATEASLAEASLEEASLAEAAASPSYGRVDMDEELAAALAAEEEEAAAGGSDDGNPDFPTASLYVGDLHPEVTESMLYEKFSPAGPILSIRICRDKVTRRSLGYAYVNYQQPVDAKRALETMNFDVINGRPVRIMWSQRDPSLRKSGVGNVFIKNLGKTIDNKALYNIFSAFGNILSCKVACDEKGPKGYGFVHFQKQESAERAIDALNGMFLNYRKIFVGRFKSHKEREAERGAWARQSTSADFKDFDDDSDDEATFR
The 7-mer Z-score of `CGUCAUG` is reported as -0.333.
The 7-mer Z-score of `AUGACCA` is reported as 0.186.
`GAGUGAC` has a 7-mer Z-score of -0.0047.
With `UCCCGAC` the 7-mer Z-score was -0.316.
With `AGAGCGC` the 7-mer Z-score was -0.228.
`UUCAACC` has a 7-mer Z-score of -0.336.
With `UCGUACU` the 7-mer Z-score was -0.211.
`AGACUUU` has a 7-mer Z-score of -0.309.

Further values, each from its own experiment
Starting sequence: viral docking peptide; TSVRRALFTGGSD; partner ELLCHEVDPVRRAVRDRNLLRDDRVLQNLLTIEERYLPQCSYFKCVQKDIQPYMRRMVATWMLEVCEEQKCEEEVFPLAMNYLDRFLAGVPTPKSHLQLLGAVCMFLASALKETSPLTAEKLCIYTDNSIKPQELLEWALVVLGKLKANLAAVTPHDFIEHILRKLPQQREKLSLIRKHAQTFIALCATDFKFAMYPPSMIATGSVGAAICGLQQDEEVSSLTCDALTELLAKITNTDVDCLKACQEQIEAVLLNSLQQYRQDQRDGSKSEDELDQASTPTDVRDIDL
`S12A` — result for “normalised enrichment score”: 0.0943 (CCND2, cyclin fold, Cln2 fusion (human); yeast growth competition, sequencing; yeast; weak parent motif; baseline: not given, higher = stronger binding).

Repeated from above (study 3):
With `UCGUACU` the 7-mer Z-score was -0.211.
The 7-mer Z-score of `AUGACCA` is reported as 0.186.
